{"data": "Measurements from different studies", "target": "Mitogen-activated protein kinase kinase kinase 19 (MAP3K19, Homo sapiens, UniProt Q56UN5)", "note": "Lines come from different studies, so protocols differ."}
{"Compound": "COc1cc(Nc2nccc(-c3cnn4nc(OC)ccc34)n2)cc(C(F)(F)F)c1", "test": "binding, competition with immobilised ligand", "conditions": "1 µM", "measurement": "remaining binding", "result": "100%"}
{"Compound": "CCN1CCN(Cc2ccc(NC(=O)c3ccc(C)c(NC(=O)c4cncc(-c5cnn(C)c5)c4)c3)cc2C(F)(F)F)CC1", "test": "binding, competition with immobilised ligand", "conditions": "1 µM", "measurement": "remaining binding", "result": "100%"}
{"Compound": "CC(C)=CC1OC(C)(C)C2C=C3C(=O)C(Cl)=CC(O)C3C3C(O)C4OC4C(=O)C132 (centres unmarked)", "test": "cell-free assay, competition with immobilised ligand", "conditions": "10 µM", "measurement": "remaining binding", "result": "8.2%"}
{"Compound": "Cc1ccc(-c2c(/C=C(\\C#N)C(=O)NC(C)C)n(CCCO)c3ncnc(N)c23)cc1", "test": "cell-free assay, competition with immobilised ligand", "conditions": "1 µM", "measurement": "remaining binding", "result": "94%"}
{"Compound": "CNC1C[S+]2CC[S+]3CC[S+](C1)[Ru-4]321([N]=C=S)[n]2c3ccc(OC)cc3c3c4c(c5cc(F)c[n+]1c5c32)C(=O)NC4=O (centres unmarked)", "test": "KinomeScan", "conditions": "0.1 µM", "how to read": "baseline: untreated", "measurement": "remaining binding", "result": "41%"}
{"Compound": "Nc1ncc2c(n1)-c1c([nH]c3ccc(C4=CCOCC4)cc13)CCC2", "test": "binding, competition with immobilised ligand", "conditions": "1 µM", "measurement": "remaining binding", "result": "9.4%"}
{"Compound": "Cc1cc(NC(=O)[C@H](O)c2cc(F)cc(F)c2)ccc1-c1cnc(N)c(C(=O)NC(C)C)c1", "test": "binding, competition with immobilised ligand", "conditions": "10 µM", "measurement": "remaining binding", "result": "5.2%"}
{"Compound": "CNC(=O)C1CCN(c2cc(C)c(F)cc2NC(=O)c2ccc(-c3cc(O)ccc3C)c(C)c2)CC1", "test": "binding, competition with immobilised ligand", "conditions": "1 µM", "measurement": "remaining binding", "result": "91%"}
{"Compound": "CCn1cc(C(=O)O)c(=O)c2c(N)c(F)c(NC3CCCCC3)cc21", "test": "kinase activity", "conditions": "0.1 µM, together with: ATP at Km", "measurement": "inhibition", "result": "-0.3%"}
{"Compound": "C=CC(=O)N1CCCC(n2c(=O)c3ncccc3n(Cc3ccc(Oc4ccccc4)cc3)c2=O)C1 (centres unmarked)", "test": "cell-free assay, competition with immobilised ligand", "conditions": "1 µM", "measurement": "remaining binding", "result": "83%"}
{"Compound": "Nc1ncc(-c2cc(-c3cnn(CC(F)(F)F)c3)ncc2F)nc1C(=O)NC1CNCC(F)C1 (centres unmarked)", "test": "enzyme activity", "conditions": "1 µM", "how to read": "baseline: DMSO control", "measurement": "remaining activity", "result": "98%"}
{"Compound": "CN1CCN(Cc2ccc(-c3ccc(CO[C@H]4CCC[C@@H]4NC(=O)c4cc(-c5cnn(C)c5)cnc4N)cc3)cc2)CC1", "test": "enzyme activity, inhibitor", "conditions": "0.1 µM", "measurement": "inhibition", "result": "-2%"}
{"Compound": "CCN1CCN(Cc2ccc(C(=O)Nc3ccc(C)c(NCc4cnc5[nH]ccc5c4OC)c3)cc2C(F)(F)F)CC1", "test": "binding, competition with immobilised ligand", "conditions": "1 µM", "measurement": "remaining binding", "result": "2.8%"}
{"Compound": "C=CC(=O)N1CCc2ccc(-n3c(=O)ccc4cnc5ccc(-c6cnn(C)c6)cc5c43)cc21", "test": "KINOMEscan", "conditions": "1 µM", "how to read": "baseline: DMSO control", "measurement": "remaining binding", "result": "100%"}
{"Compound": "C=CC(=O)N1Cc2nc(-c3cc(-c4cc(Cl)cnc4Cl)c(F)cc3F)n(-c3ccncn3)c2C1", "test": "cell-free assay, inhibitor", "conditions": "1 µM", "measurement": "inhibition", "result": "-3%"}
{"Compound": "Cc1c[nH]c2nccc(-c3ccc(C(=O)N[C@@H]4c5c(F)cc(C(F)F)cc5C[C@@H]4O)cn3)c12", "test": "binding, competition with immobilised ligand", "conditions": "3 µM", "measurement": "remaining binding", "result": "4%"}
{"Compound": "Cc1cnc2nc1Nc1cccc(c1)COC/C=C/COCc1cc(ccc1OCCN1CCOCC1)N2", "test": "binding, competition with immobilised ligand", "conditions": "0.1 µM", "measurement": "remaining binding", "result": "3.7%"}
{"Compound": "COc1c(Cl)cccc1Nc1c(-c2ccncc2C#C[C@@]2(C)CCCN2C(=O)/C=C/CN(C)C)[nH]c2c1C(=O)NCC2", "test": "binding, competition with immobilised ligand", "conditions": "3 µM", "measurement": "remaining binding", "result": "67%"}
{"Compound": "COc1ccc(O)cc1-c1c[nH]c2ncc(-c3cncc(C(=O)N(C)C)c3)cc12", "test": "binding, competition with immobilised ligand", "conditions": "0.2 µM", "measurement": "inhibition", "result": "9.59%"}
{"Compound": "COc1cc(Nc2nc(C)cc(-c3cnn4nc(OC)ccc34)n2)cc(C(F)(F)F)c1", "test": "binding, competition with immobilised ligand", "conditions": "1 µM", "measurement": "remaining binding", "result": "75%"}
{"note": "For quick reference, copied from above:"}
{"Compound": "Cc1c[nH]c2nccc(-c3ccc(C(=O)N[C@@H]4c5c(F)cc(C(F)F)cc5C[C@@H]4O)cn3)c12", "test": "binding, competition with immobilised ligand", "conditions": "3 µM", "measurement": "remaining binding", "result": "4%"}
{"Compound": "Cc1cnc2nc1Nc1cccc(c1)COC/C=C/COCc1cc(ccc1OCCN1CCOCC1)N2", "test": "binding, competition with immobilised ligand", "conditions": "0.1 µM", "measurement": "remaining binding", "result": "3.7%"}
